Experimental data gathered from unrelated publications.
Values joined by “and” are separate records of one study, mostly repeats; a detail may differ.
Target: Serine/threonine-protein kinase 33 (STK33, Homo sapiens, UniProt Q9BYT3)

Structure (SMILES) | assay | test system | conditions | scale | endpoint | value
COc1c(Cl)cccc1Nc1c(-c2ccncc2C#C[C@@]2(C)CCCN2C(=O)/C=C/CN(C)C)[nH]c2c1C(=O)NCC2 | binding, competition with immobilised ligand | – | 3 µM | – | remaining binding | 100%
C=CC(=O)N1CCc2ccc(-n3c(=O)ccc4cnc5ccc(-c6cnn(C)c6)cc5c43)cc21 | KINOMEscan | – | 1 µM | baseline: DMSO control | remaining binding | 100%
NC(=O)[C@@H](O)C[C@H]1CCc2sc3ncnc(O[C@H]4CC[C@H](N5CCOCC5)CC4)c3c21 | enzyme activity, inhibitor | – | 10 µM | – | inhibition | 26%
Nc1ncc2c(n1)-c1c([nH]c3ccc(C4=CCOCC4)cc13)CCC2 | binding, competition with immobilised ligand | – | 1 µM | – | remaining binding | 100%
COc1c(OCCCN2CCOCC2)ccc2c1N=C(NC(=O)c1cnc(N)nc1)N1CCN=C21 | enzyme activity, inhibitor | – | 1 µM | – | remaining activity | 105%
C=CC(=O)N1CCCC(n2c(=O)c3ncccc3n(Cc3ccc(Oc4ccccc4)cc3)c2=O)C1 (stereo not drawn) | cell-free assay, competition with immobilised ligand | – | 1 µM | – | remaining binding | 84%
COc1cc(Nc2nc(C)cc(-c3cnn4nc(OC)ccc34)n2)cc(C(F)(F)F)c1 | binding, competition with immobilised ligand | – | 1 µM | – | remaining binding | 94%
CNC1C[S+]2CC[S+]3CC[S+](C1)[Ru-4]321([N]=C=S)[n]2c3ccc(OC)cc3c3c4c(c5cc(F)c[n+]1c5c32)C(=O)NC4=O (stereo not drawn) | KinomeScan | – | 0.1 µM | baseline: untreated | remaining binding | 74%
Cc1c[nH]c2nccc(-c3ccc(C(=O)N[C@@H]4c5c(F)cc(C(F)F)cc5C[C@@H]4O)cn3)c12 | binding, competition with immobilised ligand | – | 3 µM | – | remaining binding | 8%
COc1ccc(NC(=O)Nc2ccc3c(c2)C(=O)N(C(C)CO)CC(C)C(CN(C)Cc2ccc4c(c2)OCO4)O3)cc1 (stereo not drawn) | kinase activity, KinaseProfiler | – | 0.03 µM, species human | baseline: control | remaining activity | 96%
Nc1ncc(-c2cc(-c3cnn(CC(F)(F)F)c3)ncc2F)nc1C(=O)NC1CNCC(F)C1 (stereo not drawn) | enzyme activity | – | 1 µM | baseline: DMSO control | remaining activity | 88.5%
Cc1ccc(-c2c(/C=C(\C#N)C(=O)NC(C)C)n(CCCO)c3ncnc(N)c23)cc1 | cell-free assay, competition with immobilised ligand | – | 1 µM | – | remaining binding | 87%
COCC12C(=O)NC3C4(C(OC)CC1O)C1CC5(O)C(OC)C(O)C(OC(C)=O)(C1C5OC(=O)c1ccccc1)C3(O)C(OC)C24 (stereo not drawn) | kinase activity, inhibitor, ProQinase kinase profiling | – | 25 µM | baseline: control | remaining activity | 98% and 94%
Cc1ccc(C(=O)Nc2ccc(CN3CCN(C)CC3)c(C(F)(F)F)c2)cc1C#Cc1cnc2cccnn12 | target engagement, NanoBRET | human cells | – | – | Hill slope | -19.5
CC(C)=CC1OC(C)(C)C2C=C3C(=O)C(Cl)=CC(O)C3C3C(O)C4OC4C(=O)C132 (stereo not drawn) | cell-free assay, competition with immobilised ligand | – | 10 µM | – | remaining binding | 100%

Some of these lines once more:
Structure (SMILES) | assay | test system | conditions | scale | endpoint | value
Cc1ccc(C(=O)Nc2ccc(CN3CCN(C)CC3)c(C(F)(F)F)c2)cc1C#Cc1cnc2cccnn12 | target engagement, NanoBRET | human cells | – | – | Hill slope | -19.5
